Results gathered from unrelated publications.
Each numbered part is a random draw from the data of one study; scales do not carry over between parts. Changes are numbered by the printed parent chain.

Series 1 — technique: DHFR PCA, deep sequencing; sample: yeast; with: (+)-ABA 200 µM; baseline: wild-type fitted maximum; reading: higher = stronger binding
Target: ABI1, truncated, D143A, DHFR fusion (Arabidopsis thaliana)
Setting: methotrexate growth selection, single substitutions
Starting sequence: PYL1, truncated, DHFR fusion (Arabidopsis thaliana); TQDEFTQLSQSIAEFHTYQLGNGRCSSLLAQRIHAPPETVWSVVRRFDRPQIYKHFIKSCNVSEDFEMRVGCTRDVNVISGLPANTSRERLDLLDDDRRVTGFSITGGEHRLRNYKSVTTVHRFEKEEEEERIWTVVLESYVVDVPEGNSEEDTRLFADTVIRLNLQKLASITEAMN
Under “relative binding score”, `R99F` is recorded as 113%.
`Q51I`: “relative binding score” 53.1%.
Under “relative binding score”, `V100I` is recorded as 106%.
For `E64L`, “relative binding score” read 91.9%.
`A30N`: “relative binding score” 87.3%.
For `R69F`, “relative binding score” read 91.8%.
`A30V` — result for “relative binding score”: 99.9%.
For `F15N`, “relative binding score” read 84.6%.
For `A175N`, “relative binding score” read 105%.
For `F157I`, “relative binding score” read 82.2%.

Series 2 — technique: RNA Bind-n-Seq; form: RNA; sample: in vitro; tested at: 365 nM; baseline: no-protein control; reading: higher = stronger binding
Target: RNA binding protein fox-1 homolog 2, RRM domain, GST-SBP tag (RBFOX2, Homo sapiens, UniProt O43251-10, residues 100-194)
Setting: natural RNA segment, single round, ends assumed
Construct (chain): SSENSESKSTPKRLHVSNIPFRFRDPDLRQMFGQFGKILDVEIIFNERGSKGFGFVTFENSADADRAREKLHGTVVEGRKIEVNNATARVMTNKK
`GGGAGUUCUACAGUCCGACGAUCACCUUGCAGCAGAUUUGACAUUGCUGCAUAGAAGGGGCAGGUGUUGGUUUUUGUUUCUUGCAUUUCUCUGGGAUGUGAAACACUUGGCUAACAAACACAACUAAGGCCUCUGGAAUUCUCGGGUGCCAA` — result for “RBNS enrichment (R)”: 0.543.
Under “RBNS enrichment (R)”, `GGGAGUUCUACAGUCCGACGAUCCCUAUGUCCCAGCUGUCAGGGGCUCAGGGAAUCCUACCCAGCCACCUGUCCUGGGAUGGAGUGUCAGCAUCCACCCCUUGGUUGUCAUCGAGGCCGCCCUCCCAGUCCUGUGGAAUUCUCGGGUGCCAA` is recorded as 0.482.
For `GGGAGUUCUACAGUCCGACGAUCGGCUGGAGAAAGGAAGGAAGCAGUGGUUUCCUUAGAUAACUACAGAAUUAUACUGGUCUCUGGGAUUACUCUCUCAGCUGUAUUAAAAUGAAUUUGUACUUUGAAAGGAAUGGAAUUCUCGGGUGCCAA`, “RBNS enrichment (R)” read 0.614.
For `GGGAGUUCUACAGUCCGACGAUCAGAUCUUACUUCUGAAUUUGAAUCGGUGGAAGACCUCAGUUCACAUGCUAAGUCAAAACGGCCCUUAGUCACGACCUUGUUGUGGCCCCUCCCUUGUCAUCAGUAGUAACUGGAAUUCUCGGGUGCCAA`, “RBNS enrichment (R)” read 0.314.
For `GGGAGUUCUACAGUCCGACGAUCCUUUCCUCUUUUUGGAGAAAAGGAACAGGGCAGUGGAAUGAAAAUUUUUUGUUUGUUUGUUUUUAAGAAACAAGAAAACAGAACUGCCUUUGCACUAAAUUAGUGACUUGUGGAAUUCUCGGGUGCCAA`, “RBNS enrichment (R)” read 3.53.
For `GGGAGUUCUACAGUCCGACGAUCUCGGGAUCUUAGUACAUGGACUUAAAAGGCAACACUACAUCAAUGGUUUGUAUAUGUGGUGAAUUCCUGCAAGAACAGUGCAUUUGUAUUAGAAAUGUAAGUUUUAAGGAUGGAAUUCUCGGGUGCCAA`, “RBNS enrichment (R)” read 0.369.
For `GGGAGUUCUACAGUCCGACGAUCUAACACGGGAUUUUAAAAAAUAUGCUCUCUCUCUCUCUGCUCUCUCUCUCUCUCUAAAUUUGGAUAUAUUUUCUUCCCAAAUUGAAUAUUUCCUUUGUUUAACUCCCCCCUGGAAUUCUCGGGUGCCAA`, “RBNS enrichment (R)” read 1.61.
Under “RBNS enrichment (R)”, `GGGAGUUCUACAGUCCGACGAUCAUAAUGGAGUAGCUGUUGCCCUUCUCCGGUUGUGUGUACAGUAUGUGUGGAAUAAAAAAGGGAAACUGUUUUCACAAGCUGUUCUUUGUUUCAUAAUUGGAUUCAUCAAUUGGAAUUCUCGGGUGCCAA` is recorded as 0.457.

Series 3 — organism: Saccharomyces cerevisiae; read-out: binding; technique: yeast competitive growth sequencing; form: peptide; setting: cyclin B2-Cln2 chimera; reading: direction not given
For `PQWPCGKHKRVLIFAS`, the enrichment score was -1.1.
With `RKLDLEGIGR` the enrichment score was -0.0717.
`TTTTSPRTPPPLTVQD` has an enrichment score of 0.874.
For `VSRNLRSSLKSSLHTL`, the enrichment score was -1.85.
With `DWDTVERQEEEAPSWD` the enrichment score was 1.32.
The enrichment score of `ARKRLELGNLGNPQ` is reported as -0.623.
`PPTFLSTGEIHAFLSS` gave an enrichment score of -0.152.
With `SCCKRKLVVGNGPEGP` the enrichment score was -1.38.

Series 4 — technique: protein binding microarray; form: double-stranded DNA, one strand shown; sample: in vitro; tested at: not given; baseline: not given; reading: higher = stronger binding
Target: Histone acetyltransferase KAT6A, winged helix 1, GST fusion (KAT6A, Homo sapiens, UniProt Q92794, residues 1-85)
Setting: 8-mer, flanks averaged, mean of 2 arrays, mostly near background
Construct (chain): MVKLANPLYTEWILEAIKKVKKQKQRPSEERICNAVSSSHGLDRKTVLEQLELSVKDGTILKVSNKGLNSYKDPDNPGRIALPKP
For `ATTGGCCA`, the E-score was -0.0651.
`AACGAAGA` gave an E-score of -0.131.
`CGTTACAC` has an E-score of 0.174.
With `CGGCGGAC` the E-score was 0.427.
With `ATAAGCCC` the E-score was 0.0182.
With `CCTGGTAG` the E-score was -0.16.
With `CCCTAGAC` the E-score was -0.173.
For `CATAGACG`, the E-score was 0.0251.
For `CCCATAGA`, the E-score was -0.338.
`CCCACGTA` has an E-score of -0.241.
The E-score of `AGTTGGGG` is reported as -0.275.
`GCTCAGTA` has an E-score of -0.0993.
With `AGTCCATC` the E-score was -0.107.
